Experimental data from different studies.
Each line is one published result; not all experiments were run side by side. ± marks the error that the study gave.
TDP1: Tyrosyl-DNA phosphodiesterase 1 (TDP1, Homo sapiens, UniProt Q9NUW8)
Sequence of UniProt P40261 (whole entry, looked up): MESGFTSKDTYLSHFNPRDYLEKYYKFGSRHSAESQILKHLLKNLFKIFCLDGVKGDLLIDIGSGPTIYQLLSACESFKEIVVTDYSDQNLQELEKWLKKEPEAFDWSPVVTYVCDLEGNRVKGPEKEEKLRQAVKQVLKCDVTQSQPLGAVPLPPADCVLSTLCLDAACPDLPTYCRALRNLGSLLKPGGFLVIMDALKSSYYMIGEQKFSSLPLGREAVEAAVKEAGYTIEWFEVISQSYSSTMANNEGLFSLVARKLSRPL
Sequence of UniProt Q9NUW8 (whole entry, looked up): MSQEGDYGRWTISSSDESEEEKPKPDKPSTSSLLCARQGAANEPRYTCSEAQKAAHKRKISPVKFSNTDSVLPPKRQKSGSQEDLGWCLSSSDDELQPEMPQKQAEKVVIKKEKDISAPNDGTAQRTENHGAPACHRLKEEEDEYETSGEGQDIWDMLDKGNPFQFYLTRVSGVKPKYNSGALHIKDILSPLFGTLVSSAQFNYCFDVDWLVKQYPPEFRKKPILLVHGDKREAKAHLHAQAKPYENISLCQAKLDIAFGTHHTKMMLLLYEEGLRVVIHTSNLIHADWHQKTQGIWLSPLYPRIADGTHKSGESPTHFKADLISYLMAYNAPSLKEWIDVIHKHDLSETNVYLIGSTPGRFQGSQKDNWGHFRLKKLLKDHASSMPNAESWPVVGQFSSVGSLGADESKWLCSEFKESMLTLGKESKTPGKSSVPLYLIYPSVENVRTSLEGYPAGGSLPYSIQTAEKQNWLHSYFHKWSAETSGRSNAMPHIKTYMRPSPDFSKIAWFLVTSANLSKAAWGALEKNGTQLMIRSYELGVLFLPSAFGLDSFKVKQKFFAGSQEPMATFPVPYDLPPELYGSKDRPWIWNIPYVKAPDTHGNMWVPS
Sequence of UniProt Q68D91 (whole entry, looked up): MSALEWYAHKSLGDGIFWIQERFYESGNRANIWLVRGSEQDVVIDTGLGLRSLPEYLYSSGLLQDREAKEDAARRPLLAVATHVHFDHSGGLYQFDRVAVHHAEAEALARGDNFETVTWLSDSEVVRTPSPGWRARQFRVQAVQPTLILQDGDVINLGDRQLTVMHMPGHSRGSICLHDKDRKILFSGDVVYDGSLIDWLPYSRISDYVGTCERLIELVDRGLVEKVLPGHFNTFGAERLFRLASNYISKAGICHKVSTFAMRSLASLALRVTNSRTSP
Sequence of UniProt Q9SZU7 (whole entry, unmodified, looked up): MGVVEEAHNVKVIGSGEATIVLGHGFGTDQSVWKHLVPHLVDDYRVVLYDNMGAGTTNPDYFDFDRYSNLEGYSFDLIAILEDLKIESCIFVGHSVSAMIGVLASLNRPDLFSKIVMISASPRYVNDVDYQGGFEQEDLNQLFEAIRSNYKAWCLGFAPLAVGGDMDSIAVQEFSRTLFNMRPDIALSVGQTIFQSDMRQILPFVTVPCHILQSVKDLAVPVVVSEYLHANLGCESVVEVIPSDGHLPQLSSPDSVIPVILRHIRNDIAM
Sequence of UniProt P0C264 (whole entry, looked up): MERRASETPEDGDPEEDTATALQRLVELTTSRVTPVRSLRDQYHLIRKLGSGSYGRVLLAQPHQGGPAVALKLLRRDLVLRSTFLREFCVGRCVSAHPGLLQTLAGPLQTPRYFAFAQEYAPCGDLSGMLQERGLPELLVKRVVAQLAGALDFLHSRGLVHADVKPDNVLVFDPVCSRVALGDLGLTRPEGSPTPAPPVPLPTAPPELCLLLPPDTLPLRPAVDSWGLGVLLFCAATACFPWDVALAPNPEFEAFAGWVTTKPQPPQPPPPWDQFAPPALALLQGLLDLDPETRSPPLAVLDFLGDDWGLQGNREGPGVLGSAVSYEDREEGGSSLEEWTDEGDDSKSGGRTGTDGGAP
Sequence of UniProt P06802 (whole entry, looked up): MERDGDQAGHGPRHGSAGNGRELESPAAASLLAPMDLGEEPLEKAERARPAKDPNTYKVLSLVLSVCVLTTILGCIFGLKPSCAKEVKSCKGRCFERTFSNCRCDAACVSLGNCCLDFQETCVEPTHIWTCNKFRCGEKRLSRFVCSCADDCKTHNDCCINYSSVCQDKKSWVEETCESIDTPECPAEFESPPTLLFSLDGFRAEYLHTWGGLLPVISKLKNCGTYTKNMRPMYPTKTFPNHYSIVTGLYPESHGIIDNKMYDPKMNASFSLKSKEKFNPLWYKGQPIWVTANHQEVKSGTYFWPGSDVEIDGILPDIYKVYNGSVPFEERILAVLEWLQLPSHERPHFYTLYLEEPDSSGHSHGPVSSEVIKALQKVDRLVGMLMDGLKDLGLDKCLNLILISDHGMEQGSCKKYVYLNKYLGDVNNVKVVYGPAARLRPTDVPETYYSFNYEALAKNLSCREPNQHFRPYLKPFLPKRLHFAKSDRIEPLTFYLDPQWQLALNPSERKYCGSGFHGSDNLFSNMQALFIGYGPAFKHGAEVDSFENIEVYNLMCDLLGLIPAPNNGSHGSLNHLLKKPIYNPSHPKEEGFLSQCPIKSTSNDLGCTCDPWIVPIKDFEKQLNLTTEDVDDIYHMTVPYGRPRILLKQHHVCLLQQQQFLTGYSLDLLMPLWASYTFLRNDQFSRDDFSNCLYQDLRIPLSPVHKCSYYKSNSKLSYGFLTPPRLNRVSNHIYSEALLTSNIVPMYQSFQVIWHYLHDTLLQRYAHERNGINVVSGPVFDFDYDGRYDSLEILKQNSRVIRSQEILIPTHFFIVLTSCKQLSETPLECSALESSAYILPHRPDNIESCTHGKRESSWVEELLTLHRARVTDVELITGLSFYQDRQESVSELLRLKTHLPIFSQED

`COc1cc(C=NOCc2ccc3nc(-c4ccccc4)c(Nc4ccc(C(=O)O)cc4)n3c2)cc(I)c1OC(C)=O` gave an inhibition of 3.5% (TDP1; enzyme activity, inhibitor; 100 µM, unpurified compound).
`NCCCC[C@H](NC(=O)[C@H](C/C=C/C[C@H](NC(=O)[C@@H]1CCCN1)C(=O)N[C@@H](CCCCN)C(=O)NCCCN)NC(=O)[C@@H]1CCCN1)C(=O)NCCCN` has a Kd of 0.302 µM (HIV-1 frameshift site RNA; SPR).
The Kd of `Cc1c[nH]c2nccc(-c3ccc(C(=O)N[C@@H]4c5c(F)cc(C(F)F)cc5C[C@@H]4O)cn3)c12` is reported as 1.65 µM (SBK3 (Homo sapiens, UniProt P0C264); binding, competition with immobilised ligand).
`CC(C)(C=NOCc1ccc(-c2nc3cc(-c4ccccc4)ccn3c2Nc2ccc(C(=O)O)cc2)cc1)Sc1ccccc1` gave an inhibition of 68.4% (TDP1; enzyme activity, inhibitor; 100 µM, unpurified compound).
`O=C(NO)c1cnc(NC2(c3cccc(F)c3)CCCCC2)nc1` has a Kd of 0.739 µM (MBLAC2 (Homo sapiens, UniProt Q68D91); inhibitor, competition pulldown; SW620 and MV4-11 lysate; 1 h).
The Kd of `Cn1ncc2cc(-c3cncc(Cl)c3N3CCC4(CCNC4=O)CC3)ccc21` is reported as 5.28 µM (NUDT1 (Homo sapiens, UniProt P36639); cell-free assay; lysate).
`CCCC[C@@H]1NC(=O)[C@H](Cc2ccc(O)cc2)NC(=O)[C@@H]2CCCN2C(=O)[C@H](CC(=O)O)NC(=O)[C@H](C)NC(=O)[C@H](Cc2ccccc2)NC(=O)[C@@H]2CSCCC(=O)N3CN(CN(C3)C(=O)CCSC[C@@H](C(=O)N[C@@H](C)C(N)=O)NC1=O)C(=O)CCSC[C@H](NC(C)=O)C(=O)N[C@@H](CC(C)(C)C)C(=O)N1CCC[C@H]1C(=O)N[C@@H](CCC(=O)O)C(=O)N[C@H](CCCCNC(=O)CCc1cn(CCOCCOCCOCCN(CCOCCOCCOCCC(=O)N[C@H]3CSCCC(=O)N4CN5CN(C4)C(=O)CCSC[C@H](NC(=O)[C@@H](CC(=O)O)NC(=O)[C@H](Cc4cccc6ccccc46)NC(=O)[C@@H]4CCCN4C3=O)C(=O)N[C@@H](CCSC)C(=O)N[C@@H](CCCCNC(=N)N)C(=O)N[C@@H](CC(=O)O)C(=O)N[C@@H](Cc3c[nH]c4ccccc34)C(=O)N[C@@H](CO)C(=O)N[C@@H]([C@@H](C)O)C(=O)N3CCC[C@H]3C(=O)N3C[C@H](O)C[C@H]3C(=O)N[C@@H](Cc3c[nH]c4ccccc34)C(=O)N[C@H](C(N)=O)CSCCC5=O)CCOCCOCCOCCn3cc(CCC(=O)NCCCC[C@H]4NC(=O)[C@H](CCC(=O)O)NC(=O)[C@@H]5CCCN5C(=O)[C@H](CC(C)(C)C)NC(=O)[C@@H](NC(C)=O)CSCCC(=O)N5CN6CN(C5)C(=O)CCSC[C@H](NC(=O)[C@H](Cc5ccc(O)cc5)NC(=O)[C@@H]5CCCN5C4=O)C(=O)N[C@@H](Cc4ccccc4)C(=O)N[C@@H](C)C(=O)N[C@@H](CC(=O)O)C(=O)N4CCC[C@H]4C(=O)N[C@@H](Cc4ccc(O)cc4)C(=O)N[C@@H](CCCC)C(=O)N[C@H](C(=O)N[C@@H](C)C(N)=O)CSCCC6=O)nn3)nn1)C(=O)N1CCC[C@H]1C(=O)N[C@@H](Cc1ccc(O)cc1)C(=O)N2` has a Kd of > 0.2 µM (Nectin-1 (NECTIN1, Homo sapiens, UniProt Q15223); SPR).
With `C=CC(=O)N1CC2(CCN(c3nc(OC4CCN(CCCOC)CC4)nc4c(OCC(F)(F)F)c(-c5c(C)ccc6[nH]ncc56)c(C5CC5)cc34)CC2)C1` the Kd was 0.896 ± 0.034 µM (GTPase KRas, GDP-bound (KRAS, Homo sapiens, UniProt P01116, Q61H); binding, surface plasmon resonance).
For `COc1cccc2c(N3CCC(CCP(=O)(O)O)CC3)ncnc12`, the Kd was 0.000254 µM (Enpp1 (Mus musculus, UniProt P06802); binding, SPR).
The Kd of `Cc1cccc2c1N(C(=O)n1ccnn1)CC2` is reported as 445 µM (KAI2 (Arabidopsis thaliana, UniProt Q9SZU7, F157Y); ITC; F157Y mutant, mean).
The Kd of `Nc1ncnc2c1ncn2[C@@H]1O[C@H](CSCC[C@H](N)C(=O)O)[C@@H](O)[C@H]1O` is reported as 39.8 µM (NNMT (Homo sapiens, UniProt P40261); SPR; with: SAM).
The Kd of `CC[C@H](C)[C@@H]1NC(=O)[C@@H](NC(=O)[C@H](C)N)CSCCC(=O)N2CN3CN(C2)C(=O)CCSC[C@H](NC(=O)[C@H](Cc2ccc(O)cc2)NC(=O)[C@H](CCC(N)=O)NC(=O)CNC(=O)[C@H](CCC(=O)O)NC(=O)[C@H](CCC(=O)O)NC1=O)C(=O)N[C@@H](Cc1ccccc1)C(=O)N[C@@H](C)C(=O)N[C@@H](CC(=O)O)C(=O)N1CCC[C@H]1C(=O)N[C@@H](Cc1ccc(O)cc1)C(=O)N[C@@H](CCSC)C(=O)N[C@H](C(=O)N[C@@H](C)C(N)=O)CSCCC3=O` is reported as 0.0406 µM (Tumor necrosis factor receptor superfamily member 9 (Homo sapiens, UniProt Q07011); binding, SPR).
The Kd of `CCc1nc2cc3ccccc3cc2cc1C(=O)N1CCC[C@H]1C(=O)N[C@@H](C/C=C\C[C@H](NC(=O)[C@@H]1CCCN1C(=O)c1cc2cc3ccccc3cc2nc1CC)C(=O)N[C@@H](CCCCN)C(=O)NCCCN)C(=O)N[C@@H](CCCCN)C(=O)NCCCN` is reported as 1.34 µM (HIV-1 frameshift site RNA; SPR).
With `CNc1cc(CF)c(C(N)=O)cn1` the Kd was 5.01 µM (Nicotinamide N-methyltransferase, SAM-bound (NNMT, Homo sapiens, UniProt P40261); substrate, SPR; 20 °C, with: SAM).
For `COc1ccc2c(c1OC)C(=O)N(c1nc3ccccc3s1)C2`, the IC50 was 74.7 µM (Uncharacterized protein (Trypanosoma brucei brucei, UniProt Q386Q8); enzyme activity, inhibitor, coupled colorimetric; with: E. coli pyrophosphatase coupling).

Some of these lines once more:
The Kd of `Cc1cccc2c1N(C(=O)n1ccnn1)CC2` is reported as 445 µM (KAI2 (Arabidopsis thaliana, UniProt Q9SZU7, F157Y); ITC; F157Y mutant, mean).
The Kd of `Nc1ncnc2c1ncn2[C@@H]1O[C@H](CSCC[C@H](N)C(=O)O)[C@@H](O)[C@H]1O` is reported as 39.8 µM (NNMT (Homo sapiens, UniProt P40261); SPR; with: SAM).
